Results collected from several papers.
Compare with care: the assays were run in different laboratories. ± marks the error that the study gave.
YWHAZ: 14-3-3 protein zeta/delta (YWHAZ, Homo sapiens, UniProt P63104)
UniProt P63104, sequence (whole entry, looked up): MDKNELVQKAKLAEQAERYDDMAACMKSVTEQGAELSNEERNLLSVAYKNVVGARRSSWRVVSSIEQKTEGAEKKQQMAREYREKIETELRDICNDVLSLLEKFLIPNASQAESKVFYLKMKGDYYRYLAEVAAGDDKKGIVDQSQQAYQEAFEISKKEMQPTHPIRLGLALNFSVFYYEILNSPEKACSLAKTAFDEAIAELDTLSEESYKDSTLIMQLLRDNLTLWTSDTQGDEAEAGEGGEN
UniProt Q05097, sequence (whole entry, looked up): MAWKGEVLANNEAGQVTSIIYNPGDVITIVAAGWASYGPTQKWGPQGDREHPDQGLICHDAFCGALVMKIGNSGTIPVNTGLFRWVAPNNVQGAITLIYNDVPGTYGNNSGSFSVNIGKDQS
UniProt Q9H2X3, sequence (whole entry, looked up): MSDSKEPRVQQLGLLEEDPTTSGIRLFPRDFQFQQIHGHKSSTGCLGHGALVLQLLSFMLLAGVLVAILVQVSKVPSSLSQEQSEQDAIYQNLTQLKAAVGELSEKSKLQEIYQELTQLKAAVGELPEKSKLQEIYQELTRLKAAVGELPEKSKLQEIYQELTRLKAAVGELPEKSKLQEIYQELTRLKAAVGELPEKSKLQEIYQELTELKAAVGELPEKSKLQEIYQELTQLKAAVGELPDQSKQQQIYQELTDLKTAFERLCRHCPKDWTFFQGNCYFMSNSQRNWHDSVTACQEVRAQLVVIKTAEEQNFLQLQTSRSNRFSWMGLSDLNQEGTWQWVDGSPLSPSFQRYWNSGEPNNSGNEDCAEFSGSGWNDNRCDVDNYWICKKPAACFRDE
UniProt Q9NZC7, sequence (whole entry, looked up): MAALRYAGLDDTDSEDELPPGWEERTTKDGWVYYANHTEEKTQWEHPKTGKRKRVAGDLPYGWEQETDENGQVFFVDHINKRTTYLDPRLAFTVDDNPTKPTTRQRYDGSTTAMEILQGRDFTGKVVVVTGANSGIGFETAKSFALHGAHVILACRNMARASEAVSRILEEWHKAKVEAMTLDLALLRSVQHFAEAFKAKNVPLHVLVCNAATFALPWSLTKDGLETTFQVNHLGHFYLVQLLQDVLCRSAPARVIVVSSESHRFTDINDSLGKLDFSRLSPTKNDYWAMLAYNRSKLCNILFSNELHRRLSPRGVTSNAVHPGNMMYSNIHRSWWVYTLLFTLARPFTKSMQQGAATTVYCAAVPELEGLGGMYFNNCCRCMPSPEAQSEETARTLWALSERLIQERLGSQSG
UniProt Q14145, sequence (whole entry, looked up): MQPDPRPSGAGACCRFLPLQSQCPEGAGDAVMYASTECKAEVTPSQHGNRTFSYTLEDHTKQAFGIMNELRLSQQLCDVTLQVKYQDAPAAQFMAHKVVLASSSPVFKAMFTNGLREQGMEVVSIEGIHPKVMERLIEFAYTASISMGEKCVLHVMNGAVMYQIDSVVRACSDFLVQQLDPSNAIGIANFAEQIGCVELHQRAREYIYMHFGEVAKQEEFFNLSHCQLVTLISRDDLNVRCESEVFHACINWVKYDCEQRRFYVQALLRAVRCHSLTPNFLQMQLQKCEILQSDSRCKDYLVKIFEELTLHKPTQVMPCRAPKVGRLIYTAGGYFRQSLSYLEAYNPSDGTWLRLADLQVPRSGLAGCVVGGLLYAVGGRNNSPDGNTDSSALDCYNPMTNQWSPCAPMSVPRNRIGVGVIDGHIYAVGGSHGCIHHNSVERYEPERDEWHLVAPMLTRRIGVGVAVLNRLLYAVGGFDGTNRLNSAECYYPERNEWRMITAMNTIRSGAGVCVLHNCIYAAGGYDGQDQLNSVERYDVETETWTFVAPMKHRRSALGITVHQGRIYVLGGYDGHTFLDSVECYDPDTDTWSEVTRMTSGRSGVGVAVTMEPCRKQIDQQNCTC
UniProt P69687, sequence (whole entry, looked up): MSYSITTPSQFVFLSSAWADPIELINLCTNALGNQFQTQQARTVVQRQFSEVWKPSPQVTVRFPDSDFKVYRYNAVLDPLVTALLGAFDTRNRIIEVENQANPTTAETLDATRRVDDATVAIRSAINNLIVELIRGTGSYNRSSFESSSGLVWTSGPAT
UniProt Q13451, sequence (whole entry, looked up): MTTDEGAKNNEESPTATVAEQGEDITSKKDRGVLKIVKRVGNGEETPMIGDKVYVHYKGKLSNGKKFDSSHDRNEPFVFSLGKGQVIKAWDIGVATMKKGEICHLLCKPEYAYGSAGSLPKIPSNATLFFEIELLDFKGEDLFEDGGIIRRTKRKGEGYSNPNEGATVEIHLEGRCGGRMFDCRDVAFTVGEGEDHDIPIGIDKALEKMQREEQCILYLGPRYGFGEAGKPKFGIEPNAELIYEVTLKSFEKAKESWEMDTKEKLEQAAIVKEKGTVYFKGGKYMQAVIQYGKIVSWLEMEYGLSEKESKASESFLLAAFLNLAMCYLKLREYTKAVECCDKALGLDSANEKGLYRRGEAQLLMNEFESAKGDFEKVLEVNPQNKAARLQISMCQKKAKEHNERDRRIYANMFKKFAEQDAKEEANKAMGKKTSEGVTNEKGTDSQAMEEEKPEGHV
UniProt P09622, sequence (whole entry, looked up): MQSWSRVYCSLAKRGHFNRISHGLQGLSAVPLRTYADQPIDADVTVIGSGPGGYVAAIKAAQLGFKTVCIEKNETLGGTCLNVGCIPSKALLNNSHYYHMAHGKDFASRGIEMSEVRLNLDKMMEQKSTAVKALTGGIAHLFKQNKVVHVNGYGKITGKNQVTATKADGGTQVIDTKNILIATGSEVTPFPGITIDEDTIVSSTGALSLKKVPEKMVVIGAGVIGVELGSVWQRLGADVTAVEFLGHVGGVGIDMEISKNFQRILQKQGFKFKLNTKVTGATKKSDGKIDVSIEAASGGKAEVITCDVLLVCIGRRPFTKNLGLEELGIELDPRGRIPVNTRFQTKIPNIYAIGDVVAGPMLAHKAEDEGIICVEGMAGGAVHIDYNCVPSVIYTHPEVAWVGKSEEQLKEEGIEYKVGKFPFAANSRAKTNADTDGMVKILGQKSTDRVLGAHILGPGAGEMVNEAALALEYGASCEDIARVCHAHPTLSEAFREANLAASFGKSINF
UniProt O49687, sequence (whole entry, looked up): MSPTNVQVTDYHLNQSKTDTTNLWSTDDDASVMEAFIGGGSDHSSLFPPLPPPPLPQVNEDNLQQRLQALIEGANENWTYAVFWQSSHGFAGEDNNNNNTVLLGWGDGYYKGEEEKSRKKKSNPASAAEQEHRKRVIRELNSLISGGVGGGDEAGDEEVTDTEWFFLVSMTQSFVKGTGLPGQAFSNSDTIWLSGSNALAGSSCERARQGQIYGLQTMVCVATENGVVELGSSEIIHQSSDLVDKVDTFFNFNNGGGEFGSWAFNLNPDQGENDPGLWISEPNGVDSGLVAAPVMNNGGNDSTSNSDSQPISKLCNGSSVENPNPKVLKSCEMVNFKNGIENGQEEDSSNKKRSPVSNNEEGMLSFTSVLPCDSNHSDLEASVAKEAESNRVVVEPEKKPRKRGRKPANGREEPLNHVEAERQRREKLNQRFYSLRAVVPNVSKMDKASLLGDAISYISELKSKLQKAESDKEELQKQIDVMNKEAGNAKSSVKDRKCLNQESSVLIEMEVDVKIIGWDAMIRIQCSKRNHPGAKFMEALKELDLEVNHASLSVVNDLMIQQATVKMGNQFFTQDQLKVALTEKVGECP
UniProt P05067, sequence (whole entry, unmodified, looked up): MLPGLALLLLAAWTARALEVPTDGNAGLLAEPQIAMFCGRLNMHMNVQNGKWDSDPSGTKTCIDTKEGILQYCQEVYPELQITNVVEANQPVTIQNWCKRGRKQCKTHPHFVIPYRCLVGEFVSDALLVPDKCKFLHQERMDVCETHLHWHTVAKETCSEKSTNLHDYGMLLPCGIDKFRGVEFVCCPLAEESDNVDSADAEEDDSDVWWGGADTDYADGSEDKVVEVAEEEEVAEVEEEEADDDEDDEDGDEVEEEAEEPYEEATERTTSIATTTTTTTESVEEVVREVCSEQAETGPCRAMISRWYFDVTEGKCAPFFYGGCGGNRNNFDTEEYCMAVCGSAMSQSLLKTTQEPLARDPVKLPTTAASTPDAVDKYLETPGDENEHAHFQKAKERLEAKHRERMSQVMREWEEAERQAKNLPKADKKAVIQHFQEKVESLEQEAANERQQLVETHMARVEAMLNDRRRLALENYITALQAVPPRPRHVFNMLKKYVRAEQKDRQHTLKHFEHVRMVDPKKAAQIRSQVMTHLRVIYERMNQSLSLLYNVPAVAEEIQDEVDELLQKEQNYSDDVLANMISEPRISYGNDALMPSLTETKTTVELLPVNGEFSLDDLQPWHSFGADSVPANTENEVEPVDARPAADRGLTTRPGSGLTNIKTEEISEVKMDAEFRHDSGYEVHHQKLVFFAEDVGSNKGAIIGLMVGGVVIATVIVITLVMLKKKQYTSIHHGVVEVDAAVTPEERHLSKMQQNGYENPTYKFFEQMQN
UniProt Q02152, sequence (whole entry, looked up): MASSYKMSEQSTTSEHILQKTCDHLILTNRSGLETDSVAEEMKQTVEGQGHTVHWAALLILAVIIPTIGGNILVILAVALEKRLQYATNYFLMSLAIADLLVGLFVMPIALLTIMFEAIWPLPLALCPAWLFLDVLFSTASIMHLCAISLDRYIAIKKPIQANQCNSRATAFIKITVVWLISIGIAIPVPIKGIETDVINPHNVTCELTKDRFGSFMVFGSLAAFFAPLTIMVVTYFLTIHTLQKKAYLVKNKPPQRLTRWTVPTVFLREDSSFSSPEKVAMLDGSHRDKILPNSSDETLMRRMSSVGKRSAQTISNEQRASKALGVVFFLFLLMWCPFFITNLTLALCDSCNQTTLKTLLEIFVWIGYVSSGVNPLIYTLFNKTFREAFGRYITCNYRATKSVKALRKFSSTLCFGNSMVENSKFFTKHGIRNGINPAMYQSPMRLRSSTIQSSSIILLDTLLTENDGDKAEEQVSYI

SMILES	target	test	system	setting	Kd [µM]
Cc1cc(-c2ccc3ccccc3c2)nnc1NCCN1CCN(C)CC1	5-hydroxytryptamine receptor 2B (Mus musculus, UniProt Q02152)	Gq activation, antagonist, Schild analysis	mouse	together with: serotonin	0.089
CC[C@H](C)[C@H](NC(=O)[C@H](Cc1c[nH]cn1)NC(=O)[C@H](CCCCNC(=O)[C@@H](NC(=O)[C@H](CCCCN)NC(=O)CSC[C@H](NC(=O)[C@H](Cc1ccccc1)NC(=O)[C@H](CCCCNC(=O)[C@H](CC(C)C)NC(=O)[C@H](CCCCN)NC(=O)[C@H](CCCCN)NC(=O)C[C@@H]1O[C@@H](C)[C@@H](O)[C@@H](O)[C@@H]1O)NC(=O)[C@H](CC(C)C)NC(=O)[C@H](CCCCN)NC(=O)[C@H](CCCCN)NC(=O)CCS[C@@H]1O[C@H](CO)[C@H](O)[C@H](O)[C@H]1O)C(N)=O)[C@@H](C)CC)NC(=O)[C@@H](NC(=O)[C@H](CCCCN)NC(=O)CSC[C@H](NC(=O)[C@H](Cc1ccccc1)NC(=O)[C@H](CCCCNC(=O)[C@H](CC(C)C)NC(=O)[C@H](CCCCN)NC(=O)[C@H](CCCCN)NC(=O)C[C@@H]1O[C@@H](C)[C@@H](O)[C@@H](O)[C@@H]1O)NC(=O)[C@H](CC(C)C)NC(=O)[C@H](CCCCN)NC(=O)[C@H](CCCCN)NC(=O)CCS[C@@H]1O[C@H](CO)[C@H](O)[C@H](O)[C@H]1O)C(N)=O)[C@@H](C)CC)C(N)=O	lecA (Pseudomonas aeruginosa, UniProt Q05097)	binding, ITC		pH 7.5	0.25
CCCCCCCC(=O)N[C@@H](CCCCNS(=O)(=O)c1cccc2c(N(C)C)cccc12)C(=O)N[C@H](C(=O)N[C@@H](CCN)C(=O)N[C@H]1CCNC(=O)[C@H]([C@@H](C)O)NC(=O)[C@H](CCN)NC(=O)[C@H](CCN)NC(=O)[C@H](CC(C)C)NC(=O)[C@@H](Cc2ccccc2)NC(=O)[C@H](CCN)NC1=O)[C@@H](C)O	Escherichia coli lipopolysaccharide	isothermal titration calorimetry		pH 7.0, 37 °C, second binding site set	24 ± 7.2
O=C(/C=C/c1ccc(F)cc1)c1ccccc1OCCSc1nnc(-c2ccccc2)c(-c2ccccc2)n1	CP (Tobacco mosaic virus, UniProt P69687)	binding, MST			0.275
Cc1cc(S(=O)(=O)N(C)CC(=O)Nc2ccn(C)c(=O)c2)c2[nH]ncc2c1	DLD (Homo sapiens, UniProt P09622)	binding, SPR			7.6
CC[C@H](C)[C@@H]1NC(=O)[C@@H]2CCCN2C(=O)[C@H](Cc2c[nH]c3ccccc23)NC(=O)[C@H](CO)NC(=O)[C@H](Cc2c[nH]c3ccccc23)NC(=O)[C@H](CC(N)=O)NC(=O)[C@H](CCCCN)NC(=O)[C@H](CCSC)NC(=O)[C@@H]2CSCCC(=O)N3CN(CN(C3)C(=O)CCSC[C@H](NC(=O)[C@H](C)N)C(=O)N3CCC[C@H]3C(=O)N[C@@H](Cc3ccccc3)C(=O)NCC(=O)N2)C(=O)CCSC[C@@H](C(=O)N[C@H](C(=O)N[C@@H](CC(N)=O)C(=O)N[C@@H](CCCCN)C(=O)N(C)CC(=O)N(C)CC(=O)N(C)CC(=O)N(C)CC(=O)N(C)CC(=O)N(C)CC(=O)N[C@@H](CCCCNC(=O)c2ccc(C(=O)O)c(-c3c4ccc(=O)cc-4oc4cc(O)ccc34)c2)C(N)=O)[C@@H](C)O)NC(=O)[C@H](Cc2c[nH]c3ccccc23)NC1=O	Nectin-4, extracellular domain (Rattus norvegicus, UniProt D3ZET1)	binding, fluorescence polarization			0.0918
CC(=O)NCCCC[C@H](NC(=O)CNC(=O)[C@@H]1CCCN1C(=O)[C@@H](NC(=O)[C@H](COP(=O)(O)O)NC(=O)[C@H](CCCCN)NC(=O)[C@H](CCCNC(=N)N)NC(=O)[C@H](C)NC(=O)[C@@H](NC(=O)[C@H](CCC(N)=O)NC(=O)[C@H](CCCCN)NC(=O)[C@@H](NC(=O)[C@H](CCCNC(=N)N)NC(=O)[C@H](C)N)[C@@H](C)O)[C@@H](C)O)[C@@H](C)O)C(=O)N[C@@H](C)C(=O)N1CCC[C@H]1C(=O)N[C@@H](CCCNC(=N)N)C(=O)N[C@@H](CCCCN)C(=O)N[C@@H](CCC(N)=O)C(=O)N[C@@H](CC(C)C)C(=O)O	YWHAZ	binding, fluorescence polarization		together with: modified histone H3 peptides	40
CC[C@H](C)[C@H](NC(=O)[C@H](CCCNC(=N)N)NC(=O)[C@H](CO)NC(=O)[C@@H](NC(=O)[C@H](CC(=O)O)NC(=O)[C@H](CC(=O)O)NC(=O)CCCCCNC(=O)c1ccc2c(c1)C(=O)OC21c2ccc(O)cc2Oc2cc(O)ccc21)[C@@H](C)O)C(=O)N[C@@H](CCC(=O)O)C(=O)N[C@@H](CCC(=O)O)C(=O)N[C@H](C(=O)N[C@@H](CC(=O)O)C(=O)O)C(C)C	FKBP5 (Homo sapiens, UniProt Q13451)	binding, FP		pH 7.4	> 25
CC(C)C[C@H](NC(=O)[C@@H](NC(=O)[C@@H](NC(=O)CNC(=O)CNC(=O)CNC(=O)CNC(=O)CNC(=O)[C@H](CC(N)=O)NC(=O)[C@H](CCCNC(=N)N)NC(=O)[C@H](Cc1c[nH]cn1)NC(=O)[C@H](CCCNC(=N)N)NC(=O)[C@H](Cc1ccc(O)cc1)NC(=O)[C@@H]1CCCN1C(=O)[C@@H]1CCCN1C(=O)[C@@H]1CCCN1C(=O)[C@@H]1CCCN1C(=O)[C@H](CC(C)C)NC(=O)[C@@H](NC(=O)[C@@H](NC(=O)CN)[C@@H](C)O)C(C)C)[C@@H](C)O)C(C)C)C(=O)N1CCC[C@H]1C(=O)N1CCC[C@H]1C(=O)N1CCC[C@H]1C(=O)N1CCC[C@H]1C(=O)N[C@@H](Cc1ccc(O)cc1)C(=O)N[C@@H](CCCNC(=N)N)C(=O)N[C@@H](Cc1c[nH]cn1)C(=O)N[C@@H](CCCNC(=N)N)C(=O)N[C@@H](CC(N)=O)C(=O)O	WW domain-containing oxidoreductase, WW1 domain (WWOX, Homo sapiens, UniProt Q9NZC7)	ITC		pH 7.8, 20 °C	50 ± 16
COC(=O)[C@H](CSC/C=C(\C)CC/C=C(\C)CC/C=C(\C)CCC=C(C)C)NC(=O)[C@H](COP(=O)(O)O)NC(=O)[C@H](CCCCN)NC(=O)[C@H](CCCCN)NC(=O)[C@H](CCCCN)NC(=O)[C@@H]1CCCN1C(=O)[C@H](CCCCN)NC(=O)[C@H](CCCCN)NC(=O)[C@H](CCCCN)NC(=O)[C@@H](N)CCC(=O)O	YWHAZ	binding, fluorescence polarization		pH 7.5, 25 °C	1.76
CCCCCCCCCCCCCC(=O)N[C@H](CCN)C(=O)N[C@@H]1C(=O)N[C@@H](CCN)C(=O)N[C@@H](CC(C)C)C(=O)N[C@@H](CCN)C(=O)N[C@H](Cc2ccccc2)C(=O)N[C@@H](CC(C)C)C(=O)N[C@@H](CCN)C(=O)N[C@H](CCN)C(=O)N[C@@H](C(C)C)C(=O)N[C@@H](CC(=O)O)C(=O)O[C@@H]1C	lipopolysaccharide	binding, isothermal titration calorimetry		pH 7.4, 25 °C	2.18 ± 0.82
CC(C)C[C@H](NC(=O)[C@@H](N)Cc1ccccc1)C(=O)O	Amyloid-beta precursor protein, amyloid-beta 1-40 V40A (APP, Homo sapiens, UniProt P05067, V711A)			concentration not given	17.2 ± 8.5
CC(C)C[C@H](NC(=O)[C@H](C)NC(=O)[C@H](Cc1ccccc1)NC(=O)[C@H](Cc1c[nH]c2ccccc12)NC(=O)C1(C)CCCC=CCCCC(C)(NC(=O)[C@H](C)NC(=O)[C@@H](NC(=O)[C@H](Cc2ccccc2)NC(=O)[C@H](CC(N)=O)NC(=O)CCCCCNC(=S)Nc2ccc3c(c2)C(=O)OC32c3ccc(O)cc3Oc3cc(O)ccc32)[C@@H](C)O)C(=O)N[C@@H](CC(N)=O)C(=O)N[C@@H](CC(C)C)C(=O)N[C@@H](CCC(=O)O)C(=O)N1)C(N)=O (some centres unmarked)	RPA70C/32D/14 complex	binding, fluorescence polarisation		FITC-labelled stapled peptide	12 to 15
CC[C@H](C)[C@H](NC(=O)[C@@H](NC(=O)[C@H](Cc1c[nH]c2ccccc12)NC(=O)[C@H](CCC(=O)O)NC(=O)[C@H](CO)NC(=S)Nc1ccc2c(c1)C(=O)OC21c2ccc(O)cc2Oc2cc(O)ccc21)C(C)C)C(=O)N[C@@H](C)C(=O)N[C@H](C(=O)N1CCC[C@H]1C(=O)N[C@@H](Cc1ccccc1)C(=O)N[C@@H](CC(C)C)C(=O)N[C@H](C(=O)N[C@@H](CC(N)=O)C(=O)N[C@@H](CC(C)C)C(=O)O)[C@@H](C)O)[C@@H](C)CC	Rgg transcriptional regulator (Streptococcus pneumoniae, UniProt A0A0E7KI02)	binder, fluorescence polarization		20 min, pH 7.4, 20 °C, fluorescein-labelled peptide	4 ± 0.8
NCc1cn([C@@H]2[C@@H](OCCn3cc(-c4cc(OCCOCCO)c(C#Cc5cc(OCCOCCO)c(C#Cc6cc(OCCOCCO)c(-c7cn(CCO[C@H]8O[C@H](CO)[C@@H](O)[C@H](O)[C@@H]8n8cc(CN)nn8)nn7)cc6OCCOCCO)cc5OCCOCCO)cc4OCCOCCO)nn3)O[C@H](CO)[C@@H](O)[C@@H]2O)nn1	C-type lectin domain family 4 member M, extracellular domain (CLEC4M, Homo sapiens, UniProt Q9H2X3)				31 ± 14
CC(C)C[C@H](NC(=O)[C@H](CCCNC(=N)N)NC(=O)[C@H](CCC(=O)O)NC(=O)[C@H](CCCCN)NC(=O)[C@H](CCCNC(=N)N)NC(=O)[C@H](CCCCN)NC(=O)[C@H](CCC(=O)O)NC(=O)[C@H](CC(C)C)NC(=O)[C@H](Cc1ccccc1)NC(=O)[C@H](CCCNC(=N)N)NC(=O)[C@H](C)NC(=O)[C@H](CC(C)C)NC(=O)[C@H](CO)NC(=O)[C@H](C)NC(=O)[C@H](CCCCN)NC(=O)[C@H](CCCNC(=N)N)NC(=O)[C@H](C)NC(=O)[C@H](CCC(N)=O)NC(=O)[C@@H]1CCCN1C(=O)[C@@H](NC(=O)[C@H](CO)NC(=O)c1ccc2c(c1)C(=O)OC21c2ccc(N(C)C)cc2Oc2cc(N(C)C)ccc21)C(C)C)C(=O)O	Transcription factor MYC4 (MYC4, Arabidopsis thaliana, UniProt O49687)	binding, fluorescence anisotropy		pH 8.0, MYC4 residues 55-253	11 ± 3.7
CC(=O)N[C@H]1CCCCn2cc3ccccc3c2SC[C@@H](C(N)=O)NC(=O)CNC(=O)[C@H](CCCNC(=N)N)NC(=O)CNC(=O)[C@H]([C@@H](C)O)NC(=O)[C@H](C)NC(=O)[C@H]([C@@H](C)O)NC(=O)[C@H](CCC(N)=O)NC1=O	KEAP1 (Homo sapiens, UniProt Q14145)	binding, BLI			4.3
